Measurements of several laboratories.
Every numbered part comes from another study and shows a few of its results, in no order. Substitutions count along the parent as printed.

Sample 1
Target: ABI1, truncated, D143A, DHFR fusion (Arabidopsis thaliana)
Technique: DHFR PCA, deep sequencing
Matrix: yeast
Setting: methotrexate growth selection, single substitutions
With: (+)-ABA 0.39 µM
Baseline: wild-type fitted maximum
Reading: higher = stronger binding
Starting sequence: PYL1, truncated, DHFR fusion (Arabidopsis thaliana); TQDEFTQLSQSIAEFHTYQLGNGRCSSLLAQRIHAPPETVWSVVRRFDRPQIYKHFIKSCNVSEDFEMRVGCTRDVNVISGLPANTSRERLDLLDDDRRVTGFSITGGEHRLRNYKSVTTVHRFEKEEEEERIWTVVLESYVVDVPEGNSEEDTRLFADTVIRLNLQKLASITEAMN
Variant	relative binding score
T6P	63%
K126R	51%
I105T	-2.92%
N77D	38.6%
D96A	-5.32%
L164D	25.9%
S117E	-14.2%
F124A	18.8%
D48F	-1.94%
R24A	9.57%
E67S	25%
R49W	-7.43%
S63D	49.2%
W134A	17.7%
T6E	65.4%
V43F	6.21%
N85I	65.6%

Sample 2
Target: Protein max, full length (MAX, Homo sapiens, UniProt P61244-2, residues 1-151)
Technique: protein-binding microarray
Molecule type: double-stranded DNA, one strand shown
Matrix: in vitro
Concentration: not given
Setting: k-mer, scored over probes, only values ≥0.25
Reading: higher = stronger binding
Sequence	E-score
GACCACGA	0.339
TCACGAGA	0.293
CCATGGCA	0.284
CCGTACAC	0.32
CAGTCATG	0.279
CATGCAGG	0.356
ACTCACAT	0.309
CATGCTCA	0.38
ACCTCATG	0.41
CACACGTG	0.496
GTGCGGCA	0.324
CACGAGGC	0.461
CGTGAGCA	0.294

Sample 3
Target: CCNE2, cyclin fold, Cln2 fusion (human)
Technique: yeast growth competition, sequencing
Matrix: yeast
Setting: strong parent motif
Baseline: not given
Reading: higher = stronger binding
Starting sequence: GMNC docking peptide (human); KNAKRNLSSEFAN; partner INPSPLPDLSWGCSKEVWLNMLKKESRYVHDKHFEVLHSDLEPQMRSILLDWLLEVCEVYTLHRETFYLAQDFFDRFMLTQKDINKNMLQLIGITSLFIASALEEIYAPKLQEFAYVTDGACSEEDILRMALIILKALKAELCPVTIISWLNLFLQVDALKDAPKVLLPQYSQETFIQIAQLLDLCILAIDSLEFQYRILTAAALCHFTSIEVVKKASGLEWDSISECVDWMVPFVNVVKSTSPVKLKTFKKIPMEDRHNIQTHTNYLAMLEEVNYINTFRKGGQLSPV
Variant	normalised enrichment score
KNAKRNLSIEFAN [S9I]	1.78
KPAKRNLSSEFAN [N2P]	1.28
KNAKRNLSCEFAN [S9C]	1.37
KNAKRNLSSSFAN [E10S]	0.74
KNAIRNLSSEFAN [K4I]	1.54
KNAKRNLSSEAAN [F11A]	0.108
KNAKRNQSSEFAN [L7Q]	0.159
KNADRNLSSEFAN [K4D]	-0.133
KNAKRNLSSKFAN [E10K]	0.431
KNAKRNLSDEFAN [S9D]	1.28
KNAKRNLSWEFAN [S9W]	1.82
KNAHRNLSSEFAN [K4H]	0.0981
KNAKRNLCSEFAN [S8C]	1.36
KNAKRNTSSEFAN [L7T]	0.738
KNAKRNLPSEFAN [S8P]	0.121

Sample 4
Target: Histone acetyltransferase KAT6A, winged helix 1, GST fusion (KAT6A, Homo sapiens, UniProt Q92794, residues 1-85)
Technique: protein binding microarray
Molecule type: double-stranded DNA, one strand shown
Matrix: in vitro
Concentration: not given
Setting: 8-mer, flanks averaged, mean of 2 arrays, mostly near background
Baseline: not given
Reading: higher = stronger binding
Construct (chain): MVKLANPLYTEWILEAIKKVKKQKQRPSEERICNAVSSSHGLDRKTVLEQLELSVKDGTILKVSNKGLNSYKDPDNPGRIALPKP
Sequence	E-score
AGGAGCCC	0.0959
CCAGCGAC	0.0474
CAATAAAC	-0.0114
AAAATTTA	-0.206
AGGAGCCT	-0.107
CGAACCTC	0.00983
CAACCAGC	-0.131
ATGCGCAC	0.352
AAGCCTAG	-0.0609
GGGACAAA	-0.107
AGAGACAG	-0.149
CTACCCAG	-0.165
CTGCCCTA	-0.128
GTTAGAGA	-0.128
ATATCGGC	0.129
CACCCATA	-0.0547
TCACTGAA	-0.0588
ACCGCTAG	0.179
CGTGTTTA	0.151
ATTATTAG	-0.0106
ACCTCATG	-0.148
AATTGCCC	-0.0229
AAACAGAA	-0.233
TGTCTTAA	-0.0978
ATCATCGC	0.155

Sample 5
Target: RING finger protein unkempt homolog, zinc fingers 1-6, GST-SBP tag (UNK, Homo sapiens, UniProt Q9C0B0, residues 30-357)
Technique: RNA Bind-n-Seq
Molecule type: RNA
Matrix: in vitro
Concentration: not given
Setting: RNA with constant flanks, human-mouse chimeric sites, ends assumed
Baseline: input RNA pool
Reading: higher = stronger binding
Target sequence (chain): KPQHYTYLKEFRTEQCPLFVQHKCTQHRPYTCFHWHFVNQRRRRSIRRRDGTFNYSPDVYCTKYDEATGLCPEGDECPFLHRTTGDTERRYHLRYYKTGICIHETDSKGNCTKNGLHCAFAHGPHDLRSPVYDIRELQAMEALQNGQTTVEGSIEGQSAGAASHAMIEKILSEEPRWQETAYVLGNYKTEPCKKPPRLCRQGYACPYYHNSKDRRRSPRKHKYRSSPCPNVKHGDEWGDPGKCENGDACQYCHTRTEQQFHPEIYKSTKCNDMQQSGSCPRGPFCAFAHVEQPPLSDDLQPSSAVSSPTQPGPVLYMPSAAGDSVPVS
Sequence	bound/input enrichment [ratio]
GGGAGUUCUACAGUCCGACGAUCUAAAUUAGGGCUGCCGUUUUCUGUUUCUCCCUGGGCUGCAGACAGCUAGAAGAUUUUAUCUAGCUUAUACAAGGCUGCUGGUGUUCCCUCCCUCCCGCCACGAGGGUGUUUUUGGCUGCACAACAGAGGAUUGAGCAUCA	0.632
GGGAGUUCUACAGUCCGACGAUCAAAGAACUACUGAGGCAAGGCAGCAAAUUUAGAAGAAACAUUUCAACAAUAUUGAUAGAGUUAGGAUUCCAAAUUAAAAAGAAAACUAAGACAUUAUAUAUCAACAAAGCCAAUGUGUGGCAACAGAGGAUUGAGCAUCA	13.5
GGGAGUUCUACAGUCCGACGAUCGUAAUGGACGUCAACACUGCUCUACAAGAGGUGCUGAAGACUGCCCUCAUCCACGAUGGCCUAGCACGUGGCAUACGCGAAGCUGCCAAAGCCUUAGACAAGCGCCAAGCCCAUCUGUGUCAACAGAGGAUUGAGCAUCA	0.234
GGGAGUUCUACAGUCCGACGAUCACUCAGAGAUUAUAUUCCCAAAGUGCUGGGAGUAAAGGUGUGGCCACCACACCUAACUUGAUGGAUAUAUAUUUUUUUUAAUAUGAAUCUUCCUGUUCGUCCAGGGAGCAAGAACGGGUUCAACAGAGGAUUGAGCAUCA	0.637
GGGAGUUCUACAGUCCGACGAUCUGACAAGGGCACUGCAGAGCCAUGCCUUUCCUUGACAUACAGAAAAAGCUGGGCAUCAGCCUGGACCGAUGGUUGACGUUCCUAAGCGCAGAACAGCCCUAUAAGAACGCCGCUCGGUGCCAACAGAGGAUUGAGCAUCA	0.064
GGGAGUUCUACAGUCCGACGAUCGCUCUUGGCAAUGUAAUCAGCGCCUUGGGGGACAAGAGCAAGAGAGCCACCCAUGUCCCUUACAGAGACUCUAAGCUAACAAGACUAUUGCAGGAUUCCCUUGGGGGUAACAGCCAAACCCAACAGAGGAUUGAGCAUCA	0.177
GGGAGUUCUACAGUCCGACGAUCUAUAUCACCAAUGUCCUACAAAAUCCUGACUUGGCUCUGAGAAUGGCUGUGCGGAACAACUUAGCUGGUGCUGAAGAACUCUUUGCCCGGAAAUUUAAUGCUCUUUUUGCCCAGGGAAACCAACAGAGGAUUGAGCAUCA	0.284
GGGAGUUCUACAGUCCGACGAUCCCAAUCGUGGAGCAGUACUUGAAGACAAAGAAAAAUUCUAAUAAUUUAAUCAUCAAGUACAUUAGCUGCCGCCUGCUGACACUCAUCAUUAUACUGUUGGCAUGUAUCUACCUGGGCUAUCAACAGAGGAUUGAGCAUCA	0.271
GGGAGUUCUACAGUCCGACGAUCGCUCCUCUUCCGCACUCAGCCUGGGGACACUGGGCUGCAUUUUUUUUCCAGCUUUCUUUUAAAACUCUCAGUGUAACUGUAUCCCGUGACAUUUCAUUUUUUUUAAAUAGUGUAUUUUUUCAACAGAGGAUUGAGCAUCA	6.29
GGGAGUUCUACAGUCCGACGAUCUGGGCACUCUAUCAGAUAUAUUAAUUUUUUAAUGUAGAUGUAAUUUUAAAAAUGAAUGGCUACUUUACACGUUUAACUAGGGUUUUACUAUAUAUGUGUACAUAUGUAUAUAUAUAUAUACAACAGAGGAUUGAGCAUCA	12.2
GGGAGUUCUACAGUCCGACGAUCUUAAUCCCCUUUACUGCUCCCCCACUUCUCAUGGUAAUGACAAAAACUUAUAUCCCCAUAUUAGCUUUCACUCAGAUGGCUUAUGGAGCCGGUUUCCUAGCUUUCUUGGGAGGGAUCAGACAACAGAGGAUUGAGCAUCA	0.323

Sample 6
Target: BATF, bZIP domain (human)
Technique: DHFR protein complementation
Matrix: yeast
Setting: single substitutions, most at no-binding floor
Baseline: wild-type JUN-FOS pair
Reading: higher = stronger binding
Starting sequence: JUN, bZIP domain (human); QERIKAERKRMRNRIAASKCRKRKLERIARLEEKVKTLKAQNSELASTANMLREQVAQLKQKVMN; partner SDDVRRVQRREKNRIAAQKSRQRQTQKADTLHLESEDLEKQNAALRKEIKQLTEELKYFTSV
Variant	binding fitness [natural log]
T37D	0.0296
K34Q	-0.122
E32L	-0.116
K34N	-0.0459
K34T	-0.0434
Q55N	-0.232
K36S	0.000646
M51D	0.0509
E54P	-1.14
Q41G	-0.594
L31M	-0.0167
E32C	-0.298
E33M	-0.1
K39F	-0.614
Q41P	-1.25
A46N	0.0575
A49C	-0.0293
Q41E	0.0524
S47Y	-0.0493
E54T	-0.0621

A few entries again (sample 3):
Variant	normalised enrichment score
KPAKRNLSSEFAN [N2P]	1.28
KNAKRNLSIEFAN [S9I]	1.78
KNAKRNLSDEFAN [S9D]	1.28
KNAKRNTSSEFAN [L7T]	0.738
KNAKRNLSSEAAN [F11A]	0.108
KNAKRNLSSKFAN [E10K]	0.431
KNAKRNLPSEFAN [S8P]	0.121
KNAKRNLSSSFAN [E10S]	0.74
KNAKRNLSCEFAN [S9C]	1.37
KNAHRNLSSEFAN [K4H]	0.0981
KNAKRNQSSEFAN [L7Q]	0.159
KNAIRNLSSEFAN [K4I]	1.54
KNAKRNLCSEFAN [S8C]	1.36
KNAKRNLSWEFAN [S9W]	1.82
KNADRNLSSEFAN [K4D]	-0.133
